# Results pooled from the literature.
# Values joined by “and” are separate records of one study, mostly repeats; a detail may differ.
# ADRA2C: Alpha-2C adrenergic receptor (ADRA2C, Homo sapiens, UniProt P18825)
# Sequence of UniProt P18825 (whole entry, looked up): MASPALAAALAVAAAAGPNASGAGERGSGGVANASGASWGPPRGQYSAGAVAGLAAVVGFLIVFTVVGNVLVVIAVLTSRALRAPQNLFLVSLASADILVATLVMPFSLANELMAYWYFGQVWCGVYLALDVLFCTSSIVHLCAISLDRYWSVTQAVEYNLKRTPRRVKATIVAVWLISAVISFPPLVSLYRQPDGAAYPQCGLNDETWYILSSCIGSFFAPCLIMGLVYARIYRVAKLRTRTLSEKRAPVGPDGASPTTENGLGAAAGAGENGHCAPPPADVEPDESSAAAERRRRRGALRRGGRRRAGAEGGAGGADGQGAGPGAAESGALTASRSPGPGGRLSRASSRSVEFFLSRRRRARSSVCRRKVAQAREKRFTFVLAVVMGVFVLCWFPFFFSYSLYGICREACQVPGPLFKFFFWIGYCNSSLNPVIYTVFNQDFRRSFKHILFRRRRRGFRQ
# HDAC1: Histone deacetylase 1 (HDAC1, Homo sapiens, UniProt Q13547)
# Sequence of UniProt Q13547 (whole entry, looked up): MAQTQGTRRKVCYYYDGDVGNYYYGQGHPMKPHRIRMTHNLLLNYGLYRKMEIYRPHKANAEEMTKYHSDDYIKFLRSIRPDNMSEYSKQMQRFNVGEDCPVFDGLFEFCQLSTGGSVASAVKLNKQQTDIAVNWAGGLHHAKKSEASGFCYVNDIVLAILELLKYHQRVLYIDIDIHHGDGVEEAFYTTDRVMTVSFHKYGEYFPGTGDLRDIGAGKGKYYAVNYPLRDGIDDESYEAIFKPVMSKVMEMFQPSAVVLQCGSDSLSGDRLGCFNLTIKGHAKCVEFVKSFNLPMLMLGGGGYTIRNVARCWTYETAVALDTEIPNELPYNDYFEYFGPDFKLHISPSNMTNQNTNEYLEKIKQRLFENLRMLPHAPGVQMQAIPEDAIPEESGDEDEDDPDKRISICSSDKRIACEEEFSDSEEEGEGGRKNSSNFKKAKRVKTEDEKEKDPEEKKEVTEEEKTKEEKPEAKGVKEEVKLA
# DRD3: D(3) dopamine receptor (DRD3, Homo sapiens, UniProt P35462)
# Sequence of UniProt P35462 (whole entry, looked up): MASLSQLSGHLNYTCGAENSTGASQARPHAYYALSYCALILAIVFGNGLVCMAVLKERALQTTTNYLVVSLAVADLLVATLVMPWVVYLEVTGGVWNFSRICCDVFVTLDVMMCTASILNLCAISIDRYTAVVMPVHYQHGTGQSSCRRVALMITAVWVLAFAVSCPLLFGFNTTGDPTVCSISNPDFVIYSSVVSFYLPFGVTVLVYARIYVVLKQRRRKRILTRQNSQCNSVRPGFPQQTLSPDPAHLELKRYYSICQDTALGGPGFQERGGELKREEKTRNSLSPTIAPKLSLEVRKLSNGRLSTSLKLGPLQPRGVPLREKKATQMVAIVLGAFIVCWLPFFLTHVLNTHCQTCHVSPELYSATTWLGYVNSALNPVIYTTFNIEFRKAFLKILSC
# ADRA2B: Alpha-2B adrenergic receptor (ADRA2B, Homo sapiens, UniProt P18089)
# Sequence of UniProt P18089 (whole entry, looked up): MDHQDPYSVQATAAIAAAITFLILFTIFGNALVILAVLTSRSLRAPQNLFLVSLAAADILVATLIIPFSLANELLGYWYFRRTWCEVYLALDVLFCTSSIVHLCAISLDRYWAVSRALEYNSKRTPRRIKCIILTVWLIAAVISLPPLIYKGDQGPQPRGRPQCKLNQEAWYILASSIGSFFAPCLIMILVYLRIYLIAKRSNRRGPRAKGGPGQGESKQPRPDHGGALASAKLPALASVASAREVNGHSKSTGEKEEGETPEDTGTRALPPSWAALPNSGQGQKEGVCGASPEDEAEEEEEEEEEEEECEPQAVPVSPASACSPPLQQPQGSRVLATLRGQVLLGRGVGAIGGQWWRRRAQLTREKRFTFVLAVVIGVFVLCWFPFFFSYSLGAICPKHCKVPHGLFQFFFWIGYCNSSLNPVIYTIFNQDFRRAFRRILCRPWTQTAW
# HDAC8: Histone deacetylase 8 (HDAC8, Homo sapiens, UniProt Q9BY41)
# Sequence of UniProt Q9BY41 (whole entry, looked up): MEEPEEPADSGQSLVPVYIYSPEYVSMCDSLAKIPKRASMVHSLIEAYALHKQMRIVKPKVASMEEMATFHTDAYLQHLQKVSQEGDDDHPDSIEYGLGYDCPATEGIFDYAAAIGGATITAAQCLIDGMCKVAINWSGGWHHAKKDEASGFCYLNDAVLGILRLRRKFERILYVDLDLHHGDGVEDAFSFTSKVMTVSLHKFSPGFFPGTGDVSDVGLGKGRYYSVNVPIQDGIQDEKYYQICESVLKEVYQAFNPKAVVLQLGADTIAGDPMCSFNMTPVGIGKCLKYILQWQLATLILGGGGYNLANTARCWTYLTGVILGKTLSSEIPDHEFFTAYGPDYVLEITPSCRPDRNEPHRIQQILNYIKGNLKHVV
# HDAC6: Protein deacetylase HDAC6 (HDAC6, Homo sapiens, UniProt Q9UBN7)
# Sequence of UniProt Q9UBN7 (whole entry, looked up): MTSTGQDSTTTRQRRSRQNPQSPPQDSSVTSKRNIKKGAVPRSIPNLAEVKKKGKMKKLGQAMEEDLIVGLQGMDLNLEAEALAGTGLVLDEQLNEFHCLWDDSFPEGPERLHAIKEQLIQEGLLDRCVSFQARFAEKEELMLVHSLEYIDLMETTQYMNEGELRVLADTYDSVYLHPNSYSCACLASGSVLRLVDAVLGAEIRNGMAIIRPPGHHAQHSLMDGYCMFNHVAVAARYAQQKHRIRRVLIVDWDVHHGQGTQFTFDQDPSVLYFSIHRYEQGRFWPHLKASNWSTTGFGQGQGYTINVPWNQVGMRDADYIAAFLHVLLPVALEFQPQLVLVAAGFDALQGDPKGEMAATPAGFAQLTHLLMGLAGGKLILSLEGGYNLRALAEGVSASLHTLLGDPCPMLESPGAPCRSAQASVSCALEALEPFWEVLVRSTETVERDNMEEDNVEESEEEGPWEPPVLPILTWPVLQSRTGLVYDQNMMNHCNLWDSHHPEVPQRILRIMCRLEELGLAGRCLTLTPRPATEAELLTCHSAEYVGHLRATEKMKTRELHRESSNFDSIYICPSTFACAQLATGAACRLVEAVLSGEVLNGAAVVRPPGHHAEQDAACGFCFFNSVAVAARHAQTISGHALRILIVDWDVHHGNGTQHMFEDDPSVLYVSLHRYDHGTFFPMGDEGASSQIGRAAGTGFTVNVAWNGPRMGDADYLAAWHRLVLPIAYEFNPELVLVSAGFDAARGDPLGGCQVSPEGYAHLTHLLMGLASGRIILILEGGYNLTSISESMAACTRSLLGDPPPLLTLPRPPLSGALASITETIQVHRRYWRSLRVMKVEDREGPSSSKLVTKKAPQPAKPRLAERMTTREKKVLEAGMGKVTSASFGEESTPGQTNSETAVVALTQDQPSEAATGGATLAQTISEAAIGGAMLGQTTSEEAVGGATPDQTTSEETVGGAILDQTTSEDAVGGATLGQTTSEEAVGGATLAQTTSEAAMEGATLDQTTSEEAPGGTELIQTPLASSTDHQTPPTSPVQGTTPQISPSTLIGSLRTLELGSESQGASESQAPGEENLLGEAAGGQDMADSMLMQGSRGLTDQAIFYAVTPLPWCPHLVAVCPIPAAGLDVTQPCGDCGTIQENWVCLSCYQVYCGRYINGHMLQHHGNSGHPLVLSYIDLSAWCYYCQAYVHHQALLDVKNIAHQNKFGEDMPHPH
# Sequence of UniProt P0DMS8 (whole entry, unmodified, looked up): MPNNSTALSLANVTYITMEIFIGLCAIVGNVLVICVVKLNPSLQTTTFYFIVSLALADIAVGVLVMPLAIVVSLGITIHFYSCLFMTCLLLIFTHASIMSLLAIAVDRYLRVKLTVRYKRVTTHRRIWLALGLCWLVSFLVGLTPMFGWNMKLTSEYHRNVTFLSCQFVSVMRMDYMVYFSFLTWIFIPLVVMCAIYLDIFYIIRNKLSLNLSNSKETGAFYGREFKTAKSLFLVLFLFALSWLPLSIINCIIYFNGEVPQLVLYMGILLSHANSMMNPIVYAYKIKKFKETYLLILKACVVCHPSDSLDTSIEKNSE
# Sequence of UniProt Q9UQL6 (whole entry, looked up): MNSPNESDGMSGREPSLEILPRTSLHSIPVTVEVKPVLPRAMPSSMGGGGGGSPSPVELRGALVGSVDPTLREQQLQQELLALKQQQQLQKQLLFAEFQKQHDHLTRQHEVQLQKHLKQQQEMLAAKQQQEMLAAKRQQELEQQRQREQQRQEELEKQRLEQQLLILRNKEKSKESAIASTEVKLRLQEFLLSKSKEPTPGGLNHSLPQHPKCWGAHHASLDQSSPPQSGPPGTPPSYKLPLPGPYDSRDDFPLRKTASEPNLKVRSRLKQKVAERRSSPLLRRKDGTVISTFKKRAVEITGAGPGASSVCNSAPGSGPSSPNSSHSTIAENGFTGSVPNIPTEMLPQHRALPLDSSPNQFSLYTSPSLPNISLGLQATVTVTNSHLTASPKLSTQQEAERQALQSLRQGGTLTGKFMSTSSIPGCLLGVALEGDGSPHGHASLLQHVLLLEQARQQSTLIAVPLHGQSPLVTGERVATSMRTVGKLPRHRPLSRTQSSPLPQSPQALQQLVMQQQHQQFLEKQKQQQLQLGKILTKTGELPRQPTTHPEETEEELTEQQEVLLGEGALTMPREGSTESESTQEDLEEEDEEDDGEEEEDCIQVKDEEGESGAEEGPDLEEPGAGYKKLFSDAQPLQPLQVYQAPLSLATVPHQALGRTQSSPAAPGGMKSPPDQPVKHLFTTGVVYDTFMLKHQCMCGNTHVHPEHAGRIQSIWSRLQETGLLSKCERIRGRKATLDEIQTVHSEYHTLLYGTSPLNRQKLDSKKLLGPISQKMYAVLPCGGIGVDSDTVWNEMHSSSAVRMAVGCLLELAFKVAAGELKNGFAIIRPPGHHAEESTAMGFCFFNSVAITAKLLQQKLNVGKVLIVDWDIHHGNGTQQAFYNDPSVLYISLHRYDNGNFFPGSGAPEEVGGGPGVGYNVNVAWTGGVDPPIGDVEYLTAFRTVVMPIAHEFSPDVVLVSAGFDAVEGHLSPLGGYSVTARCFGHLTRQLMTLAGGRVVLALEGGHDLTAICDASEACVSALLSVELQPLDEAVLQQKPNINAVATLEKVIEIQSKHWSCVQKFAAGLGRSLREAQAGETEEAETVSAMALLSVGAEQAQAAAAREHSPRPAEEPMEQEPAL
SMILES,target,read-out,mode,technique,setting,measurement,value
Cc1cc(Oc2ncccc2CN2CCN(c3ccc(Cl)cc3)CC2)ccc1-c1c(C)c(=O)[nH]c(=O)n1C,ADRA2C,ligand displacement,,radioligand,,Ki,86 nM and 85.7 nM
O=C(NO)c1cccc(OS(=O)(=O)Oc2ccc3ccccc3c2)c1,HDAC1,enzyme activity,inhibitor,fluorescence,,Ki,1020 nM
Cc1[nH]c(C)c(S(=O)(=O)Nc2ccc(C(F)(F)F)c(Cl)c2)c1C(=O)N(C)C,DRD3,G protein activation,antagonist,BRET,,IC50,12000 nM
Cc1cc(Oc2ncccc2CN2CCN(c3ccc(O)cc3)CC2)ccc1-c1c(C)c(=O)[nH]c(=O)n1C,ADRA2B,ligand displacement,,radioligand,,Ki,762 nM
O=C(NO)c1cccc(OS(=O)(=O)Oc2ccc(C(F)(F)F)cc2)c1,HDAC8,enzyme activity,inhibitor,fluorescence,,Ki,800 nM
[2H]C1([2H])CCC([2H])([2H])N1C(=O)c1c(C)[nH]c(C)c1S(=O)(=O)Nc1ccc(C(F)(F)F)c(Cl)c1,DRD3,β-arrestin recruitment,antagonist,,,IC50,2400 nM
Cc1cc(Oc2ncccc2CN2CCN(c3cc(Cl)cc(Cl)c3)CC2)ccc1-c1c(C)c(=O)[nH]c(=O)n1C,ADRA2C,ligand displacement,,radioligand,,Ki,301 nM
Cc1[nH]c(C)c(S(=O)(=O)Nc2ccc(C(F)(F)F)c(Cl)c2)c1C(=O)N1CC(F)(F)C(F)(F)C1,DRD3,β-arrestin recruitment,antagonist,,,IC50,21000 nM
O=C(NO)c1cncc(OS(=O)(=O)Oc2ccc(-n3ccnc3)cc2)c1,"HDAC5 (Homo sapiens, UniProt Q9UQL6)",enzyme activity,inhibitor,fluorescence,,Ki,1170 nM
Cc1[nH]c(C)c(S(=O)(=O)Nc2ccc(C(F)(F)F)c(Cl)c2)c1C(=O)N1CCC(F)(F)C1,DRD3,ligand displacement,,radioligand,cell membranes,Kb,1700 nM
O=C(NO)c1cncc(OS(=O)(=O)Oc2ccc3ccccc3c2)c1,HDAC1,enzyme activity,inhibitor,fluorescence,,Ki,301 nM
Cc1cc(Oc2ncccc2CN2CCN(c3cccc(C)c3C)CC2)ccc1-c1c(C)c(=O)[nH]c(=O)n1C,ADRA2B,ligand displacement,,radioligand,,Ki,59.4 nM
Cc1cc(OS(=O)(=O)Oc2ccccc2)cc(C(=O)NO)c1,HDAC6,enzyme activity,inhibitor,fluorescence,,Ki,1700 nM
Cc1[nH]cc(S(=O)(=O)Nc2ccc(C(F)(F)F)c(Cl)c2)c1C(=O)N(C)C,DRD3,β-arrestin recruitment,antagonist,,,IC50,> 50000 nM
Cc1cc(Oc2ncccc2CN2CCN(c3cccc4ccccc34)CC2)ccc1-c1c(C)c(=O)[nH]c(=O)n1C,ADRA2B,ligand displacement,,radioligand,,Ki,130 nM
CN(C)c1ncnc2c1ncn2[C@@H]1O[C@H](CO)[C@@H](O)[C@H]1O,"ADORA3 (Homo sapiens, UniProt P0DMS8, V169A)",G protein activation,agonist,,,EC50,2400 nM
O=C(NO)c1cc(F)cc(OS(=O)(=O)Oc2ccc(Oc3ccccc3)cc2)c1,HDAC8,enzyme activity,inhibitor,fluorescence,,Ki,3830 nM
Cc1cc(Oc2ncccc2CN2CCN(c3ccccc3[N+](=O)[O-])CC2)ccc1-c1c(C)c(=O)[nH]c(=O)n1C,ADRA2C,ligand displacement,,radioligand,,Ki,26 nM
CCc1ccc(NS(=O)(=O)c2c(C)[nH]c(C)c2C(=O)N2CCCC2)cc1Cl,DRD3,G protein activation,antagonist,BRET,,IC50,6400 nM
O=C(NO)c1cc(F)cc(OS(=O)(=O)Oc2ccc(-n3ccnc3)cc2)c1,HDAC6,enzyme activity,inhibitor,fluorescence,,Ki,45 nM
Cc1cc(Oc2ncccc2CN2CCN(c3ccccn3)CC2)ccc1-c1c(C)c(=O)[nH]c(=O)n1C,ADRA2C,ligand displacement,,radioligand,,Ki,30.3 nM
Cc1[nH]c(C)c(S(N)(=O)=Nc2ccc(C(F)(F)F)c(Cl)c2)c1C(=O)N1CCC(F)(F)C1 (stereo not shown),DRD3,β-arrestin recruitment,antagonist,,,IC50,12800 nM

# Excerpt of the above:
SMILES,target,read-out,mode,technique,setting,measurement,value
Cc1[nH]c(C)c(S(N)(=O)=Nc2ccc(C(F)(F)F)c(Cl)c2)c1C(=O)N1CCC(F)(F)C1 (stereo not shown),DRD3,β-arrestin recruitment,antagonist,,,IC50,12800 nM
CCc1ccc(NS(=O)(=O)c2c(C)[nH]c(C)c2C(=O)N2CCCC2)cc1Cl,DRD3,G protein activation,antagonist,BRET,,IC50,6400 nM
